# Experimental data of several laboratories.
# Parts stem from different laboratories: compare values within a part only.

# Sample 1 — method: RNA Bind-n-Seq; form: RNA; sample: in vitro; tested at: 365 nM; reference: no-protein control; direction: higher = stronger binding
# Target: RNA binding protein fox-1 homolog 2, RRM domain, GST-SBP tag (RBFOX2, Homo sapiens, UniProt O43251-10, residues 100-194)
# Setting: natural RNA segment, single round, ends assumed
# Construct (chain): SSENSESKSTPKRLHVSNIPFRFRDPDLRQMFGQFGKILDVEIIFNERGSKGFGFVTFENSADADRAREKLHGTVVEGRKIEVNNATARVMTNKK
Strand,RBNS enrichment (R)
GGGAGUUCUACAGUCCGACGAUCGGGAUGAACUGCUCCCUCUAGCCUUACUGGCUCUGAUCCACAGGGUUUUGUUUUGUUUUGUUUUGUUUUUUGUUUAAGUCGAGAUAUAAAAACUGAACACGAUAACACUUUGGAAUUCUCGGGUGCCAA,0.295
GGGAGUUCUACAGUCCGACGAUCACAGGGACCUUCUGCACUCCAUCCAUAAUAGCCUUUGGUACCUUCCAGAGGAGUCCUUCCCGAGAGCUGGCAAGUCUUUGAGCUGUAGCUUGAAUGGGCUGUCGGGGGACUGGAAUUCUCGGGUGCCAA,1.23
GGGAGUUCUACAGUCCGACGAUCGGCCCUGCAAAAGGACUCUCAGGACCAAAGCUUUCAUGUAAACUGUGCACCAAGCAGGAAAUGAAAAUGUCUUGUGUUACCUGAAAACACUGUGCACAUCUGUGUCUUGUUGGAAUUCUCGGGUGCCAA,0.353
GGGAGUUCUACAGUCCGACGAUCAACUACAUGCAUCUGUGAAAACAUGUGUAUUUAUGAAGGUGGACUUGAAGCUGCCCAGGAUUUUAACAGUCCAGUUCUACUGUAGCAACAUAGCAAAAAGAAAGUGGCUAUGGAAUUCUCGGGUGCCAA,0.266
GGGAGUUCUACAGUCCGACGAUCUGAGACAAACUGAAAAUUAUUGCAAGCAUUGACUAUAAUUAUGCAGUACGUUCUCAGGAUGCAUCCAGGGGUUCAUUUUCAUGAGCCUGUCCAGGUUAGUUUACUCCUGAUGGAAUUCUCGGGUGCCAA,1.96
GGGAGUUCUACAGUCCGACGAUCACAGGCAUCUUAGAUAUUGCAGUUUCUCCUGCUAUUCACUAGAAAGAAGGCUUGGCUUUCUUGACUUUCUUGCAUAAGAGUGAAAUACUCCUUACCCAGGGUAUCAUAGUUGGAAUUCUCGGGUGCCAA,0.378
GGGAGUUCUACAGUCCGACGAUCGGUCUGGAAGGUCUGGUCUCCCUUGGUCUUCCAUGGGAUGCUUAAUGUGGAGGGGAGAUAGAGAUUAACCAGCCGUUUUGUGAUGCCGUGGAUUGAUCAAGUCUUCUGAUUGGAAUUCUCGGGUGCCAA,2.13
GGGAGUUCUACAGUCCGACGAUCGCUCAACAAAGCACAUCUUCACCACGCUCCAUCCGGACAACUCCAGUCUUGCCAACAAGUGCCAAAUAUCUGAGGAACCCAGGAACCCAGGGGAUCCCUUCCCCCAAGCCUGGAAUUCUCGGGUGCCAA,0.633
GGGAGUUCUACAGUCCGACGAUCAUUGUUGGCAAUAUAAUCUUGAGAGGCUGGUGGGACUUGGGGAAGGAGCAGGGACAGACAUCUGUUGGUAUUGCCCAGCUCCUGUAUCUGUGAUACAUUCCCUGGCUGAGUGGAAUUCUCGGGUGCCAA,0.374
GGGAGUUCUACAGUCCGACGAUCGAAGGACGCUGUCCAGCUAGAGACGCUGGAGCUCCCCCCCGGCUGUGUCCGCAGAGCCGGGGCCGGGGACUUCAUGCGCUACCACUACAAUGGCUCCUUGAUGGACGGCAUGGAAUUCUCGGGUGCCAA,0.303
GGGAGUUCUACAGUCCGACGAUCAUCCCUUACUCUUCGGGUCAGCUGUUGAGAAGAGGCGGGUUUUCUUCAUUGGCCUAGAUUUUGCGGCAGAUUAGACCUUUUGAAGGUUCUCCACCAUUUUCGUACGUCUCUGGAAUUCUCGGGUGCCAA,0.485
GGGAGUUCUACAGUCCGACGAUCGAACUCUUUAUAAAACCGUCCGAUCUUGUGAGACUUAUUCACUAUCACAAGAACAGCACAGGAAAGUUCUGCCCCCGUGAUUCAAUUACCUCCCACUUGGUCCCACCCACUGGAAUUCUCGGGUGCCAA,0.43

# Sample 2 — method: protein-binding microarray; form: double-stranded DNA, one strand shown; sample: in vitro; tested at: 2540 nM top; setting: 60-bp whole probe; together with: salmon DNA 0.4 mg/ml; reference: random background probes; direction: higher = stronger binding; shared flanks, not repeated: GCCTAGCAC … GTCTTGATTCGCTTGACGCTGCTG
# Target: Interferon regulatory factor 3, full length, phosphomimetic (IRF3, Homo sapiens, UniProt Q14653, residues 1-427, S386D/S396D/S398D/S402D/T404D/S405D)
# Construct (chain): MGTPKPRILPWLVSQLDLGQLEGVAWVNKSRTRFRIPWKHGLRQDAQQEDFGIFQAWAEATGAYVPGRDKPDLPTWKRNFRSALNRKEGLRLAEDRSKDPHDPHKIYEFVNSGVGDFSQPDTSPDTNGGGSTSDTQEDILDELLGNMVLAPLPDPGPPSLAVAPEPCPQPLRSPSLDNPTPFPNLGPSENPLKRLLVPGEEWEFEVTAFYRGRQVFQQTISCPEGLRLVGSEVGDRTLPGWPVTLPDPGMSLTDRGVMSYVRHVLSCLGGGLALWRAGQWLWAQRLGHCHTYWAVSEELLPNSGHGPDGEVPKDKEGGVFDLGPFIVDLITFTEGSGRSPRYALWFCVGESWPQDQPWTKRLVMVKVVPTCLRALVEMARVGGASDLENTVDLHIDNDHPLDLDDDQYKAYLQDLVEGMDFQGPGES
Strand,fitted relative affinity
GACGATCTCAGTTTCGACACGTGCTAG,2.38 z-score
TCACCTATAGGTTCAACACTGTGCTAG,0.479 z-score
TAAGATATCGGGACTGGATTAGTGCTA,-0.126 z-score
GTACATCTCTCTTAAATAGGGTGCTAG,0.737 z-score
GACGGTTTCCTTTTGCTGACGTGCTAG,9.73 z-score
TCACTTCCCAATAATCTTACTGTGCTA,1.92 z-score
GGTCTTCTGGGCTGTTTGGTCGTGCTA,-0.214 z-score
TAAGATCTCAGTCTCGATTAGTGCTAG,0.607 z-score
TTAGGTTTCGACTTTCGATTAGTGCTA,3.7 z-score
CTAGCTTCCATTTTCTGAACGTGCTAG,2.86 z-score
TCATGAGTCACTTCTGGTACTGTGCTA,-0.189 z-score
ATGCTGGTCACTCTCTGGGCGTGCTAG,-0.226 z-score
GACGATTTCGGGGCTGGAGACGTGCTA,0.775 z-score
TTAGATCTCAGTGTCGATTAGTGCTAG,0.236 z-score
TTAGGGTTCGACACTGGGTTAGTGCTA,-0.399 z-score
TTAGGTTTCCTTATCCATTAGTGCTAG,8.55 z-score
TTAGAACTGGGGTATCGTTTAGTGCTA,-0.165 z-score
TTAGGTATCCTTATCCTATAGTGCTAG,5.75 z-score
TCATATTAAATTTTCACACTGTGCTAG,1.19 z-score
GACAGTTTCCTTCTCCTGACGTGCTAG,11.2 z-score
CACGGACTGCTTCTCCTGACGTGCTAG,-0.346 z-score
GACGAACTGGGGTTTCTAGACGTGCTA,-0.429 z-score
ATTGTCTTCCCCATCTTGTTGTGCTAG,0.923 z-score
CAGCTTTTATCCCTGACAGAGTGCTAG,0.527 z-score
TCAGGTATCGACTTTCGGTTAGTGCTA,2.25 z-score

# Sample 3 — method: protein binding microarray; form: double-stranded DNA, one strand shown; sample: in vitro; tested at: not given; reference: not given; direction: higher = stronger binding
# Target: Histone acetyltransferase KAT6A, both winged helices, GST fusion (KAT6A, Homo sapiens, UniProt Q92794, residues 1-181)
# Setting: 8-mer, flanks averaged, mean of 2 arrays, mostly near background
# Construct (chain): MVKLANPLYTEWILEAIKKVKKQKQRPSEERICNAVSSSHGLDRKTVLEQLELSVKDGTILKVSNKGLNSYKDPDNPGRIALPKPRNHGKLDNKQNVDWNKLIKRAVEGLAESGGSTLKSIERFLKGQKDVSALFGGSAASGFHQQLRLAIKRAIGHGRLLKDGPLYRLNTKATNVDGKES
Strand,E-score
AGCCCGAG,0.096
CGTCGACC,-0.0086
TACTTTGA,-0.118
GAGGCTGC,-0.259
ACCTGCAA,-0.147
GAGTCTTA,0.0545
ACTAGTAA,-0.129
AGAAACGA,-0.188
AAGATAAA,0.00598
ACATTGGG,-0.096
CAGCTACA,-0.198
AACAGTGA,-0.0548
ATCCGTAA,0.219
GTCACAAC,0.0573
TCTATCAA,-0.188
CAGGCCAG,-0.0807
AGGGCACT,-0.233
GGCTTCAA,-0.0169
GTGTTAAC,0.14
AACTGGTA,-0.123
AACACCGC,0.212
CACTGACG,0.0163
AATACGCA,0.0244
CTGGTCGC,0.107

# Sample 4 — method: RNA Bind-n-Seq; form: RNA; sample: in vitro; tested at: 200 nM; setting: whole 134-nt RNA, ends assumed; together with: 150 mM LiCl; reference: input library; direction: higher = stronger binding; each molecule: 7-deaza-guanosine replaces G
# Target: Fragile X messenger ribonucleoprotein 1, C-terminal low-complexity region (Fmr1, Mus musculus, UniProt P35922)
Strand,log2 enrichment
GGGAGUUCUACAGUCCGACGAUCUGGGAGGUGGAUUUUGUUUAUUUUUUUAGCUCAUUUCCAGGGGUGUGAAUUUUUUUUUAAUAUGUGUCAUGAAUAAAGUUGUUUUUGAAAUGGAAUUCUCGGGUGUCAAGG,-0.387
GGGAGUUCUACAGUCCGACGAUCUAACUUUAGAGGAGGAUCUGAGGGAUAUGGCAGUGGACGUGGAUUUGGGGAUGGCUAUAAUGGGUAUGGAGGAGGACCUGGAGGUGGCAAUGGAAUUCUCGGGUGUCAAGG,0.355
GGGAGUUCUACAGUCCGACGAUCCACAGACAACACGCACCCACACAGACACAGAGGGAAGGGGUUGGGAUGGGGACAGGGUGCACAGCAGAGCGGGGUAGGACCCCAGCCCCUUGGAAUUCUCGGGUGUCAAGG,0.436
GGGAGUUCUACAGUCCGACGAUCUCCUGUGCUACACAUCGUAUGUACCGAAUCGGUUUUUUGGGUUUUUUGGUUUUUUGGGGAAAGUAUUAUGUUACGCCGUUCGGAUCUGCAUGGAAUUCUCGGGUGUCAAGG,-1.04
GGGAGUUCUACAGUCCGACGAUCAAGUCCUGUGCUACACAUCGUAUGUACCGAAUCAAACCCAAACCCAAACCCCCAAAAAAGUAUUAUGUUACGCCGUUCGGAUCUGCACUUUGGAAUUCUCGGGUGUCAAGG,-0.356
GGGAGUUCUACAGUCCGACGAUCGCAGGAUGUAAAAACAAAUGGAAAUGCUUCGGAUAGUGGCAGGGGUGGGGGUUGCUAAGGAAAGGGUGGGAUGGGAGUGGGUAAAGAGUUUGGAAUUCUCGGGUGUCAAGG,2.11
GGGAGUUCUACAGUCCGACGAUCCCUGUGCUACACAUCGUAUGUACCGAAUCGGCCCCCCGGGCCCCCCGGGGCCCCCCGGGGAAAGUAUUAUGUUACGCCGUUCGGAUCUGCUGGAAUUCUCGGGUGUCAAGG,-2.86
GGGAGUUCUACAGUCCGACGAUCACCAUGCAGGUGGGCAUCUUUGGGAAGUGGGGCAAGGGGGGGAUAGGCAGGGGGGUAACACUUUGGGAACAGGUGGUCCCAGGUCGUUUCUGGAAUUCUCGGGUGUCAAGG,1.13
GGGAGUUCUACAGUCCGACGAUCAGUCCUGUGCUACACAUCGUAUGUACCGAAUCGGGUUUUUUUGGGAGGGAAAAAGGGAAAGUAUUAUGUUACGCCGUUCGGAUCUGCACUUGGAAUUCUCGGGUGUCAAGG,-1.21
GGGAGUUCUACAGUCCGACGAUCUGCGGGCGGCUGAGACGCCGCCUGCCUGGCACCUAGGAGCGCAGCGGAGCCCCGACACCGCCGCCGCCGCCAUGGAGUCCGAGACCGAACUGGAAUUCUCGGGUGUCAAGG,0.0503
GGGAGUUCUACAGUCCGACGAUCUAACUUUAGAGGAGGAUCUGAUGGAUAUGGCAGUGGACGUGGAUUUGGGGAUGGCUAUAAUGGGUAUGGAGGAGGAACUGGAGGUGGCAAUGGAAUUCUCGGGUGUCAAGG,1.11

# Some of these lines once more (sample 4):
Strand,log2 enrichment
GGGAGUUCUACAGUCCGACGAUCGCAGGAUGUAAAAACAAAUGGAAAUGCUUCGGAUAGUGGCAGGGGUGGGGGUUGCUAAGGAAAGGGUGGGAUGGGAGUGGGUAAAGAGUUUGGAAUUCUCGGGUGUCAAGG,2.11
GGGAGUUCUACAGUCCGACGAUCCCUGUGCUACACAUCGUAUGUACCGAAUCGGCCCCCCGGGCCCCCCGGGGCCCCCCGGGGAAAGUAUUAUGUUACGCCGUUCGGAUCUGCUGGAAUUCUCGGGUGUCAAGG,-2.86
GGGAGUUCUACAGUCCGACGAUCACCAUGCAGGUGGGCAUCUUUGGGAAGUGGGGCAAGGGGGGGAUAGGCAGGGGGGUAACACUUUGGGAACAGGUGGUCCCAGGUCGUUUCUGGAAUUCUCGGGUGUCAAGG,1.13
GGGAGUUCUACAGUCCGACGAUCAGUCCUGUGCUACACAUCGUAUGUACCGAAUCGGGUUUUUUUGGGAGGGAAAAAGGGAAAGUAUUAUGUUACGCCGUUCGGAUCUGCACUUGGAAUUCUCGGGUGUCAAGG,-1.21
